Measurements gathered from unrelated publications.
Compare with care: the assays were run in different laboratories. ± marks the error that the study gave.

O=S(=O)(O)CC1CSSCC(CS(=O)(=O)O)SS1 (centres unmarked)
viability (OECM1; 127 µM, 4 d): 59.8%

N=C(N)NCCC[C@@H]1NC(=O)[C@H](CCCNC(=N)N)NC(=O)[C@H](CCCNC(=N)N)NC(=O)[C@H](Cc2c[nH]c3ccccc23)NC(=O)[C@H](Cc2c[nH]c3ccccc23)NC(=O)[C@H](Cc2c[nH]c3ccccc23)NC(=O)[C@H](Cc2c[nH]c3ccccc23)NC(=O)[C@H](CCCNC(=N)N)NC1=O
viability (SK-OV-3; MTS; 50 µM, 24 h): ~78%

CC(C)CCC[C@@H](C)[C@H]1CC[C@@H]([C@@H]2CC[C@H]3C[C@H](O)CC[C@]3(C)C2=O)[C@]1(C)CC(=O)NCC(=O)O
viability (HEK293T; CellTiter-Blue; 10 µM): > 100%

COc1cc(C=CC(=O)CC(=O)C=Cc2ccc(OCC(=O)O)c(OC)c2)ccc1O
viability (SH-SY5Y; MTT; 0.9 µM, 24 h): 96.1 ± 5.4%

CC(C)CCC[C@@H](C)[C@H]1CCC([C@@H]2CC[C@H]3C[C@@H](O)CC[C@]3(C)[C@@H]2O)[C@]1(C)CC(=O)O (some centres unmarked)
viability (HEK293T; CellTiter-Blue; concentration not given): 45%

O=C1/C(=C/c2ccc3c(c2)OCCO3)SC(=S)N1[C@@H]1O[C@H](CO)[C@@H](O)[C@H](O)[C@H]1O
viability (THLE-2; cell growth or viability, MTT; 100 µM, 48 h): ~75%

COc1cc(C=CC(=O)CC(=O)C=Cc2ccc(OCC(=O)NCCOCCOCCOCCOCCOCCOCCOCC(F)(F)F)c(OC)c2)ccc1O
viability (SH-SY5Y; MTT; 0.9 µM, 24 h): 94.7 ± 6.7%

COc1ccc([C@@H]2CC(=O)c3c(O)cc(O[C@@H]4O[C@H](CO[C@@H]5O[C@@H](C)[C@H](O)[C@@H](O)[C@H]5O)[C@@H](O[C@H]5O[C@H](CO)[C@@H](O)[C@H](O)[C@H]5O)[C@H](O)[C@H]4O)cc3O2)cc1O
viability (MRC5; cell growth or viability, MTS; 150 µg/mL, 72 h): 49.8%

CC(C)Cc1ccc(C(C)C(=O)N/N=C/c2ccc(OCC(=O)N/N=C/c3ccc([N+](=O)[O-])cc3)cc2)cc1 (centres unmarked)
viability (HEK293; MTT; 10 µM, 48 h): 49.3%

CCCCc1ccc(N2C(=O)/C(=N\NC(=N)N)c3cc(C)ccc32)cc1
viability (BJ normal fibroblasts; MTT; up to 2 µg/mL, 24 h): > 80%

CC(C)Cc1ccc(C(C)C(=O)N/N=C/c2ccc(OCC(=O)N/N=C/c3cccc(O)c3)cc2)cc1 (centres unmarked)
viability (HEK293; MTT; 150 µM, 48 h): 47.6%

COc1ccc(C(=O)Nc2cccc(S(N)(=O)=O)c2)cc1OC
viability (HEK293T; MTT; serum-free medium; 100 µM, 24 to 48 h; reference: untreated): 72 ± 0.2%

CC(C)Cc1ccc(C(C)C(=O)NN=Cc2ccc(OCC(=O)NN=Cc3cccc([N+](=O)[O-])c3)cc2)cc1 (centres unmarked)
viability (HEK293; MTT; 40 µM, 48 h): 102%

O=C(C=Cc1ccc(O)c(OC(F)(F)F)c1)C(CCOCCOCCOCCO)C(=O)C=Cc1ccc(O)c(OC(F)(F)F)c1 (centres unmarked)
viability (SH-SY5Y; MTT; 0.9 µM, 24 h): 99.6 ± 6.2%

Repeated from above:
COc1ccc(C(=O)Nc2cccc(S(N)(=O)=O)c2)cc1OC
viability (HEK293T; MTT; serum-free medium; 100 µM, 24 to 48 h; reference: untreated): 72 ± 0.2%
